Assay results gathered from unrelated publications.
A part holds a random share of what one study measured. Positions count from the first letter of the parent shown.

Series 1 — target: CCNB1, cyclin fold, Cln2 fusion (human); method: yeast growth competition, sequencing; matrix: yeast; setting: weak parent motif; baseline: not given; direction: higher = stronger binding; quantity: normalised enrichment score
Starting sequence: SAMHD1 docking peptide (human); ASKSRVQLFKDDP
Substitution = K10W; result = 0.0781
Substitution = D12H; result = 0.0134
Substitution = K3P; result = 0.0885
Substitution = S4A; result = 0.67
Substitution = L8W; result = 0.163
Substitution = S2L; result = 0.689
Substitution = K10G; result = 0.0664
Substitution = F9R; result = 0.0217
Substitution = D11A; result = 0.0508
Substitution = D11M; result = 0.142
Substitution = D11L; result = 0.0319
Substitution = F9A; result = 0.261
Substitution = F9P; result = 0.352
Substitution = V6A; result = 0.21
Substitution = F9V; result = 0.703
Substitution = R5I; result = 0.457
Substitution = K3N; result = 0.536
Substitution = S4Q; result = 0.212
Substitution = R5S; result = -0.246
Substitution = S4Y; result = 0.408
Substitution = Q7H; result = 0.329
Substitution = R5Q; result = 0.148
Substitution = R5G; result = 0.0303
Substitution = D11F; result = 0.322
Substitution = L8T; result = 0.212

Series 2 — method: protein-binding microarray; form: double-stranded DNA, one strand shown; matrix: in vitro; concentration: not given; direction: higher = stronger binding; quantity: E-score
Target: Protein max, full length (MAX, Homo sapiens, UniProt P61244-2, residues 1-151)
Setting: k-mer, scored over probes, only values ≥0.25
Oligonucleotide = ACATGCAC; result = 0.391
Oligonucleotide = CGACGTGC; result = 0.261
Oligonucleotide = CCACACGG; result = 0.263
Oligonucleotide = ATCGTGCG; result = 0.288
Oligonucleotide = CGCATGCC; result = 0.422
Oligonucleotide = CGCGCCAC; result = 0.259
Oligonucleotide = ACATGAGA; result = 0.329
Oligonucleotide = CACGTTAC; result = 0.424
Oligonucleotide = CCATATGA; result = 0.321
Oligonucleotide = ATGACATG; result = 0.336
Oligonucleotide = ATAACATG; result = 0.271
Oligonucleotide = CCCCACGG; result = 0.269
Oligonucleotide = AGATCATG; result = 0.268
Oligonucleotide = ACATGGTC; result = 0.416
Oligonucleotide = CCGCGCAC; result = 0.302
Oligonucleotide = CACGCCTC; result = 0.368
Oligonucleotide = TGCAGCCA; result = 0.276
Oligonucleotide = AACACGGG; result = 0.374
Oligonucleotide = CACGATAC; result = 0.26
Oligonucleotide = CGGAACAC; result = 0.266
Oligonucleotide = AAGTCACG; result = 0.362
Oligonucleotide = CGTGTTTC; result = 0.362

Series 3 — target: CRIPT, C-terminal peptide; method: DHFR complementation, deep sequencing; matrix: yeast; baseline: wild type; direction: higher = weaker binding; quantity: binding free energy change
Setting: single substitutions, model-inferred values
Starting sequence: ERBIN, PDZ domain 1 (human); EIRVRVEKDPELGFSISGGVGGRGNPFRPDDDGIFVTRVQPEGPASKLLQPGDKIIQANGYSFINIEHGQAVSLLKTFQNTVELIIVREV; partner TKNYKQTSV
Substitution = G33H; result = 0.855 kcal/mol
Substitution = Q70K; result = 0.0776 kcal/mol
Substitution = F78P; result = 0.0801 kcal/mol
Substitution = T37L; result = 0.976 kcal/mol
Substitution = E11S; result = 0.234 kcal/mol
Substitution = L12D; result = 1.27 kcal/mol
Substitution = A45E; result = 1.49 kcal/mol
Substitution = I66T; result = 0.263 kcal/mol
Substitution = A58R; result = 0.751 kcal/mol
Substitution = E67P; result = 0.0689 kcal/mol
Substitution = K54R; result = 0.271 kcal/mol
Substitution = D30H; result = 0.214 kcal/mol
Substitution = P44D; result = 0.967 kcal/mol
Substitution = V36S; result = 0.683 kcal/mol
Substitution = N59P; result = 0.836 kcal/mol
Substitution = P10C; result = -0.394 kcal/mol
Substitution = F27D; result = 1.05 kcal/mol

Series 4 — method: DHFR PCA, deep sequencing; matrix: yeast; with: (+)-ABA 0 µM; baseline: wild-type fitted maximum; direction: higher = stronger binding; quantity: relative binding score
Target: ABI1, truncated, D143A, DHFR fusion (Arabidopsis thaliana)
Setting: methotrexate growth selection, single substitutions
Starting sequence: PYL1, truncated, DHFR fusion (Arabidopsis thaliana); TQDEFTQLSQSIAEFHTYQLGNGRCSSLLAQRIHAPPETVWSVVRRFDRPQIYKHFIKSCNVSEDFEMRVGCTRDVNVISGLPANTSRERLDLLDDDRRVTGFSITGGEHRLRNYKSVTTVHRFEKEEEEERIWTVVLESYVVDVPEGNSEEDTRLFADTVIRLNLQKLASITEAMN
Substitution = E89H; result = 4.62%
Substitution = R155Y; result = -1.97%
Substitution = L94R; result = 0.14%
Substitution = V143C; result = 45.5%
Substitution = Y53K; result = -13%
Substitution = M176T; result = 9.92%
Substitution = R98P; result = -3.88%
Substitution = E38I; result = 0.79%
Substitution = T154P; result = -5.09%
Substitution = L93E; result = 0.0143%
Substitution = G148D; result = -0.495%
Substitution = G108R; result = -0.448%
Substitution = I79F; result = 22.3%
Substitution = E38H; result = 1.87%
Substitution = N177Q; result = 21.4%
Substitution = T17D; result = -0.465%
Substitution = F124V; result = 29.1%
Substitution = V62C; result = 4.26%
Substitution = L29M; result = -0.986%
Substitution = L138Y; result = 2.81%
Substitution = T1C; result = 24%
Substitution = W41S; result = 1.23%
Substitution = E38Q; result = -2.29%

Series 5 — method: RNA Bind-n-Seq; form: RNA; matrix: in vitro; concentration: not given; baseline: input RNA pool; direction: higher = stronger binding; quantity: bound/input enrichment
Target: RING finger protein unkempt homolog, zinc fingers 1-6, GST-SBP tag (UNK, Homo sapiens, UniProt Q9C0B0, residues 30-357)
Sequence of UniProt Q9C0B0 (30-357, looked up): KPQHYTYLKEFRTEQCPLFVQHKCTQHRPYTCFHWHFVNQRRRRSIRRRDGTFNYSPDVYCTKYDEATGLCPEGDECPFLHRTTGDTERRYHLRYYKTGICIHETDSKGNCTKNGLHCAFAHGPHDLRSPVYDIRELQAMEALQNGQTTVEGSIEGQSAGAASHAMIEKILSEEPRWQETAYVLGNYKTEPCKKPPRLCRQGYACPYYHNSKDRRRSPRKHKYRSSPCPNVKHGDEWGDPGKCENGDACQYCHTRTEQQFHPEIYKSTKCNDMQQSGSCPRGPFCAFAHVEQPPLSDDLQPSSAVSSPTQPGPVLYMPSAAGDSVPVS
Setting: RNA with constant flanks, human and mouse sites, ends assumed
Constant ends, left off below: GGGAGUUCUACAGUCCGACGAUC … CAACAGAGGAUUGAGCAUCA
Oligonucleotide = GAAAAGGAAGACAUAAAAAUCACUAAGGAAAGAACUCCAGAAAGUGAAGAAGAAAAUGUAGAAUGGGAAACUAAUAGAGAUGAUUCUGACAAUGGAGAUAUUAAUUAUGAUUAUGUUCAU; result = 1.23 ratio
Oligonucleotide = UAUUUCCCACUGUGUGUCGACCUUAGGAGCCACUGGAGGAGAGAGCACUUUCGUAGAUCACCAGUGGGAAAGCAGUUUUUAAACAACGGAUAUACCCCCUGUUAGCUGUGUAGUCGGAUA; result = 0.736 ratio
Oligonucleotide = CCCCCUUUCCCCGGUCCCAGGCUCUCCUUCGGAAAGAUGUCGGACACGGCAGUAGCUGAUACCCGGCGCCUUAACUCGAAGCCGCAGGACCUGACCGACGCUUACGGGCCGCCAAGUAAC; result = 0.145 ratio
Oligonucleotide = UUACAUUAAAAAUCAUUGUACUUGCACAACUUAAUUUAGAAAAAGAAUGUGUAUUUCUUCAAUAGCCGAGCAUAAGGAUUGCACCCUGUAUCUGAAUGUGGCUCUUUGGAUGGAAGUGCA; result = 0.902 ratio
Oligonucleotide = UGCUUUCCCCUCUCUCCUGGUUGCUUCUCCCUUUUUUUUCCCUUUCCUUUUUACUUUUUUUUUUUUUUUUGCAGUGUCCCCAUUCUGAUUCUCGCUCUGUCGACGGCACUGUUGGUGCCA; result = 3.43 ratio
Oligonucleotide = AUUUUUUUUUUAAAUGGGCUGUUUUUAAUGCAGGGGCUUUUCUUCCCUAGAAACCCAAUUCUAAGCAGAAAAAGAAAAAAAACACAAAAAAUAAAAAACCCCUACAAAAAAACUUUAAAA; result = 0.408 ratio
Oligonucleotide = ACAAUGACUUCUCUAUUACAAAGAUAAGAAACGGUCCCACAAAUAAAAAAAUAAUAAUAAAUGGCUAUUUUUGAAAUUCAAAUAUUUAAAUUUUGUAAAUCAACUGUUUAGGACGUCGUG; result = 3.17 ratio
Oligonucleotide = GAUUUUGUGGACACCAGAUGUGUGCGGUGUUUUGUUUUCUUUCUUUCGUUUUAAUUUUUUUUUUUUUAAGACAACAACUAAAAAGAAAAAAAAAAUCCCAAGGAUUCUGUGCACUGGAAC; result = 0.222 ratio

Series 6 — method: protein binding microarray; form: double-stranded DNA, one strand shown; matrix: in vitro; concentration: not given; baseline: not given; direction: higher = stronger binding; quantity: E-score
Target: Histone acetyltransferase KAT6A, winged helix 2, GST fusion (KAT6A, Homo sapiens, UniProt Q92794, residues 85-181)
Setting: 8-mer, flanks averaged, mean of 2 arrays, mostly near background
Residues (chain): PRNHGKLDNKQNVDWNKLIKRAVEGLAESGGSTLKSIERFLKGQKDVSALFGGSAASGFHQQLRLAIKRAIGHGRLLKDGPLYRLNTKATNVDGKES
Oligonucleotide = GCAGTGGA; result = 0.149
Oligonucleotide = TTACGGAA; result = 0.0196
Oligonucleotide = ATGTTCCA; result = 0.0658
Oligonucleotide = CGTTCTAC; result = 0.0127
Oligonucleotide = AGCAGTGC; result = 0.0468
Oligonucleotide = GCGAATCA; result = 0.112
Oligonucleotide = CAGTGTGG; result = -0.09
Oligonucleotide = AGGTTTGC; result = 0.0143
Oligonucleotide = CGACTATC; result = -0.0399
Oligonucleotide = ATAGGGTA; result = -0.142
Oligonucleotide = CAGGCATG; result = 0.0485
Oligonucleotide = CTGATCCC; result = -0.107
Oligonucleotide = CGTATGAA; result = 0.0727
Oligonucleotide = CCTAGTAA; result = -0.0317
Oligonucleotide = ACACATGC; result = -0.151
Oligonucleotide = CACTGAAC; result = 0.00739
Oligonucleotide = ATTAATGG; result = 0.0544
Oligonucleotide = CAATCGCC; result = -0.00115
Oligonucleotide = AGTGGGTC; result = 0.105
Oligonucleotide = AACCCTAA; result = 0.0259
Oligonucleotide = AATGCTCC; result = -0.0882

Other studies, line by line
Molecule = PhoQ, residues 284 288 289 292 302 303 TASMAF; target = PhoP, residues 12 14 15 18 19 LHATL (Escherichia coli, UniProt P23836); test = Sort-seq, refers to: YFP reporter; test system = E. coli; setting = PhoQ-PhoP variant library, with: 10 µM Mg2+; how to read = baseline: high Mg2+ state, higher = stronger signaling; quantity = fold induction; result = 11.1

Some of these lines once more (series 6):
Oligonucleotide = CCTAGTAA; result = -0.0317
Oligonucleotide = AATGCTCC; result = -0.0882
Oligonucleotide = AGGTTTGC; result = 0.0143
Oligonucleotide = CACTGAAC; result = 0.00739
Oligonucleotide = CAATCGCC; result = -0.00115
Oligonucleotide = GCAGTGGA; result = 0.149
Oligonucleotide = CGTATGAA; result = 0.0727
Oligonucleotide = ATTAATGG; result = 0.0544
Oligonucleotide = CAGTGTGG; result = -0.09
Oligonucleotide = CAGGCATG; result = 0.0485
Oligonucleotide = CGTTCTAC; result = 0.0127
Oligonucleotide = AACCCTAA; result = 0.0259
Oligonucleotide = ACACATGC; result = -0.151
Oligonucleotide = GCGAATCA; result = 0.112
Oligonucleotide = ATAGGGTA; result = -0.142
Oligonucleotide = TTACGGAA; result = 0.0196
Oligonucleotide = CTGATCCC; result = -0.107
Oligonucleotide = ATGTTCCA; result = 0.0658
